Results pooled from the literature.
± marks the error that the study gave. In brackets after ≈: the same amount, converted by molar mass.

Structure (SMILES) | test | test system | conditions | how to read | measurement | value
Cc1nc2cccc(OCC(C)(C)C(=O)NC(C)C)c2c(N)c1C(=O)[O-].[Na+] | – | cell culture medium | precipitation onset, lymphocyte | – | solubility limit | 500 µg/mL
Cc1ccc2c(N)c(C(=O)Nc3cccc(C(F)(F)F)c3)sc2n1 | – | anti-HIV assay medium | – | – | solubility limit | ≤ 1000 µM
CCCCCCCCCCCCCCCC(=O)NC[C@H](NC(=O)CNC(=O)CCNc1ccc([N+](=O)[O-])c2nonc12)C(=O)N[C@H](C(=O)N[C@@H](CCCCN)C(=O)N[C@H](C(=O)N[C@@H](CCCCN)C(=O)N[C@@H](CCCCN)C(=O)O)[C@@H](C)CC)C(C)C | – | lymphoblast culture medium | – | – | solubility limit | 20 µM
CC(C)=CCC[C@](C)(O)[C@H]1CC[C@]2(C)[C@@H]1[C@H](O)C[C@@H]1[C@@]3(C)CC[C@H](O)C(C)(C)[C@@H]3CC[C@]12C | – | Labrasol | 72 h, 25 °C | – | solubility | 8630 ± 1780 µg/mL (≈ 18.7 mM)
CCCC1OC2CC3C4CCC5=CC(=O)C=CC5(C)C4C(O)CC3(C)C2(C(=O)COC(=O)C(C)N)O1 (stereo not drawn) | – | water | 72 h | reference: budesonide | solubility fold increase | 149 fold
C=C1C[C@@]23CC[C@H]4[C@@](C)(CCC[C@@]4(C)C(=O)O[C@@H]4O[C@H](CO)[C@@H](O)[C@H](O)[C@H]4O)[C@@H]2CC[C@]1(O[C@@H]1O[C@H](CO[C@H]2O[C@H](CO)[C@@H](O)[C@H](O)[C@H]2O)[C@@H](O)[C@H](O)[C@H]1O[C@@H]1O[C@H](CO)[C@@H](O)[C@H](O)[C@H]1O)C3 | – | deionised water | 24 h | reference: cpd over rebaudioside A | solubility ratio | 80 fold
COc1cc(C2C(NC(=O)c3ccc(NC(=O)OC(C)(C)C)cc3)(C(=O)O)C(c3ccc(OC(=O)c4cccs4)c(OC)c3)C2(NC(=O)c2ccc(NC(=O)OC(C)(C)C)cc2)C(=O)O)ccc1OC(=O)c1cccs1 (stereo not drawn) | HPLC | poloxamer 188 solution | unit not given | reference: with over without surfactant | solubility increase | ~1000
CCCC1OC2CC3C4CCC5=CC(=O)C=CC5(C)C4C(O)CC3(C)C2(C(=O)COC(=O)CN)O1 (stereo not drawn) | – | water | 72 h | reference: budesonide | solubility fold increase | 180 fold
CCCCCCCCCCCCCCCC(=O)OC[C@H]1O[C@@H](n2cc(F)c(N)nc2=O)CS1 | – | water | 24 h, unit not given | reference: parent drug | solubility decrease | 1200
